Experimental data collected from several papers.
Parts stem from different laboratories: compare values within a part only. Changes are numbered by the printed parent chain.

Series 1
Target: Sal-like protein 4, full length isoform A (SALL4, Homo sapiens, UniProt Q9UJQ4, residues 1-1053)
UniProt Q9UJQ4, sequence (whole entry, looked up): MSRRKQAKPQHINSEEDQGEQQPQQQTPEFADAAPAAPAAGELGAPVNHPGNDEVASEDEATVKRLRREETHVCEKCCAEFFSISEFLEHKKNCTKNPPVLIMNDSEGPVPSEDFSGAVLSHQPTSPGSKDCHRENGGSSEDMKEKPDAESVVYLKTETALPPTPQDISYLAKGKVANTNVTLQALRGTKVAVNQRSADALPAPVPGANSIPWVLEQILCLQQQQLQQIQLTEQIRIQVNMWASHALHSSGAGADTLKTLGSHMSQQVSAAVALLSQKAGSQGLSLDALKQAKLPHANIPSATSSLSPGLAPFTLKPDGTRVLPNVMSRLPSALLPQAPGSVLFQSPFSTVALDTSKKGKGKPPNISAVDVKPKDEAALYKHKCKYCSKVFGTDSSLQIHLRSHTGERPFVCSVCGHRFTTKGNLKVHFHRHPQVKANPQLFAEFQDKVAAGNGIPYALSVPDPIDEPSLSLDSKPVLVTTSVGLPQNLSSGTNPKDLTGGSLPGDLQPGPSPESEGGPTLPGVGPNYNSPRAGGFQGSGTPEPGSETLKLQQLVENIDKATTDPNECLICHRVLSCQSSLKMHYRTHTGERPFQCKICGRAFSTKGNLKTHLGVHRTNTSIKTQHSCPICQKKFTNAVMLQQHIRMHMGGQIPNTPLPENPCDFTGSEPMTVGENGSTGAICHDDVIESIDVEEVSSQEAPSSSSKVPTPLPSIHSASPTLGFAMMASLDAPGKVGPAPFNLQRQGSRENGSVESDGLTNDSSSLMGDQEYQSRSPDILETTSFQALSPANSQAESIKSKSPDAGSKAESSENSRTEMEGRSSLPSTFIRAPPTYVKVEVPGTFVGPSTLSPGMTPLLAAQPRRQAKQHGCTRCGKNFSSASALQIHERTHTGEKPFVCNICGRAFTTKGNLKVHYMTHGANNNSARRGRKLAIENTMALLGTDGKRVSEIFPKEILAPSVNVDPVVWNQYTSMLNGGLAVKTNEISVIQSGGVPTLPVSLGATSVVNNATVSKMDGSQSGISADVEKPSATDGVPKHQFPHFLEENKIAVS
Method: universal PBM
Form: double-stranded DNA, one strand shown
Medium: in vitro
Tested at: 600 nM
Setting: 8-mer, flanks averaged, mean of replicates
Reading: higher = stronger binding
| Sequence | E-score |
| --- | --- |
| ATTGTCGC | 0.105 |
| ACTCATGG | 0.148 |
| ATAGATTG | 0.226 |
| GAGGTCTA | -0.0967 |
| AGATTCGA | -0.046 |
| AAACAACT | 0.149 |
| ACCCACAG | -0.0802 |
| CCCTCACG | -0.342 |
| ATCAGCCA | -0.2 |
| CAGTTAGC | -0.123 |
| TGCGATAA | 0.283 |
| AATGAAGC | 0.076 |
| AAAAAGAT | 0.281 |
| TACACCAA | -0.00789 |
| GAAACAGA | 0.157 |
| GTTACTTA | 0.237 |
| ATAGTTCA | 0.225 |
| ATAGCGGA | 0.0869 |
| ATAGAGAC | 0.168 |
| AAGCTCTA | 0.109 |

Series 2
Target: Interferon regulatory factor 3, full length, phosphomimetic (IRF3, Homo sapiens, UniProt Q14653, residues 1-427, S386D/S396D/S398D/S402D/T404D/S405D)
UniProt Q14653, sequence (whole entry, unmodified, looked up): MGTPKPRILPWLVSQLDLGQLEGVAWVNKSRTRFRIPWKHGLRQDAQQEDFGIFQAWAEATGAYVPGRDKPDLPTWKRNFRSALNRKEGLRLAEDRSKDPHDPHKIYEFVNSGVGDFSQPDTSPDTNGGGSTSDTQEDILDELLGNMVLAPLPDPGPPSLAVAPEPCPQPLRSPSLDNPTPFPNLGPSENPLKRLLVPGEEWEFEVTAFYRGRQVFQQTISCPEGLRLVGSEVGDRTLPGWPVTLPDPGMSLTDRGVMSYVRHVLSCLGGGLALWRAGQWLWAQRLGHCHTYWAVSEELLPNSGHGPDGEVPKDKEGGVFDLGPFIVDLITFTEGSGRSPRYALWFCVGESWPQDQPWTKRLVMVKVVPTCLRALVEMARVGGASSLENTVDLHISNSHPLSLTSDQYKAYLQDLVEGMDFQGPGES
Method: protein-binding microarray
Form: double-stranded DNA, one strand shown
Medium: in vitro
Tested at: 2540 nM top
Setting: 60-bp whole probe
Added: salmon DNA 0.4 mg/ml
Relative to: random background probes
Reading: higher = stronger binding
Constant ends, left off below: GCCTAGCAC … GTCTTGATTCGCTTGACGCTGCTG
| Sequence | fitted relative affinity [z-score] |
| --- | --- |
| TAAGATTTCAGTCTCGATTAGTGCTAG | 2.31 |
| ACTGAAATCACCCTTGGAAGTGTGCTA | 0.193 |
| TCAGTCACCCATCTCAGACTGTGCTAG | 1.5 |
| GACGGCCTCGGTCTCGGGACGTGCTAG | -0.854 |
| GACGAATCCAGTTTCGAGACGTGCTAG | 2.59 |
| TTAGGTATCGACACTTGGTTAGTGCTA | 0.298 |
| GACGGTATCGACACTGGGGAGGTGCTA | 0.631 |
| TTAGGTCTCCTATTCCTTTAGTGCTAG | 2.32 |
| CACTCTCAGAATCTCTCATGGTGCTAG | 2.36 |
| TTAGACCTCAGTCTCGATTAGTGCTAG | -0.114 |
| ATAGATATCAGTATCGATTAGTGCTAG | 2.09 |
| ATCATTTTAGTTTTCATTATGTGCTAG | 3.31 |
| GACGGTATCGACTTTAGGGACGTGCTA | 0.948 |
| GACGGTATCCTTATCCTGGCGTGCTAG | 5.43 |
| GACGGTATCGACACTGGGGAAGTGCTA | 0.529 |
| GACAATCTCAGTCTCGAGACGTGCTAG | 0.611 |
| GTGACTCTGAACCTTGGGCTGTGCTAG | -0.804 |
| GACGATTTCAATTCCGAGACGTGCTAG | 2.08 |
| CTCCCTTTCAGTTTTCCTATGTGCTAG | 3.59 |
| TTAGGTTTCGGGACTGGGCTAGTGCTA | 4.04 |
| TACTACATATCACCTCAATCGTGCTAG | 0.5 |
| TCAGTTCCTTATTTAAGACTGTGCTAG | 3.32 |
| GAAGGTTTCGGTTCCGGGACGTGCTAG | 10.8 |
| TCACGCTTCATCTCCCAGACTGTGCTA | 0.164 |
| TTAGCACTGAGACTGGATTAGTGCTAG | -0.604 |

Series 3
Target: CCNF, cyclin fold, Cln2 fusion (human)
Method: yeast growth competition, sequencing
Medium: yeast
Setting: strong parent motif
Relative to: not given
Reading: higher = stronger binding
Starting sequence: WEE1 docking peptide (human); HKTFRKLRLFDTP
| Substitution | normalised enrichment score |
| --- | --- |
| HRTFRKLRLFDTP [K2R] | 3.2 |
| HKTFCKLRLFDTP [R5C] | 1.2 |
| HKAFRKLRLFDTP [T3A] | 1.34 |
| HKTFRKLRLFDTS [P13S] | 2.51 |
| HKTFRKLRLFDTM [P13M] | 3.03 |
| SKTFRKLRLFDTP [H1S] | 2.85 |
| HKTFRSLRLFDTP [K6S] | 1.06 |
| HKTWRKLRLFDTP [F4W] | 3.29 |
| HKTFRKLRLQDTP [F10Q] | 0.81 |
| HKTARKLRLFDTP [F4A] | 5.17 |
| HPTFRKLRLFDTP [K2P] | 3.06 |
| HKTFRKARLFDTP [L7A] | 0.737 |
| HKTFRKLGLFDTP [R8G] | 1.91 |
| HKTFRKLRLDDTP [F10D] | 2.15 |
| HKTFRWLRLFDTP [K6W] | 2.81 |
| HKTFRKLLLFDTP [R8L] | 4.59 |

Mixed results
| Substance | target | test | test system | conditions | how to read | quantity | result |
| --- | --- | --- | --- | --- | --- | --- | --- |
| PhoQ, residues 284 288 289 292 302 303 HSYLQF | PhoP, residues 12 14 15 18 19 QYFSL (Escherichia coli, UniProt P23836) | Sort-seq, measured: YFP reporter | E. coli | PhoQ-PhoP variant library, added: 10 µM Mg2+ | relative to: high Mg2+ state, higher = stronger signaling | fold induction | 1.29 |

For quick reference, copied from above (series 1):
| Sequence | E-score |
| --- | --- |
| AAGCTCTA | 0.109 |
| GAGGTCTA | -0.0967 |
| ATAGATTG | 0.226 |
| ACCCACAG | -0.0802 |
| CAGTTAGC | -0.123 |
| AAACAACT | 0.149 |
